{"data": "Assay results from different studies", "note": "Protocols differ between the studies behind these lines. Values joined by “and” are separate records of one study, mostly repeats; a detail may differ. Numbers after ± are the reported error."}
{"SMILES": "CC1C(=O)NC(=O)N1/N=C/c1ccc([N+](=O)[O-])o1 (stereo not shown)", "cell line": "HepaRG", "read-out": "cell growth or viability", "technique": "MTT", "time": "24 h", "IC50": "> 100 µM"}
{"SMILES": "CCCCn1cc(C(=O)O)c(=O)c2cc(F)c(Nc3cccc(OC)c3)c([N+](=O)[O-])c21", "cell line": "T47D", "read-out": "cell growth", "technique": "SRB", "time": "72 h", "IC50": "130 ± 4.61 µg/mL"}
{"SMILES": "O=C1OCC(NCCc2ccc(Cl)cc2)N1/N=C/c1ccc([N+](=O)[O-])o1 (stereo not shown)", "cell line": "HepaRG", "read-out": "cell growth or viability", "technique": "MTT", "time": "24 h", "IC50": "> 100 µM"}
{"SMILES": "O=C(Cc1ccccc1)NC(=S)Nc1nccs1", "cell line": "normal human PBMC", "read-out": "cytotoxicity", "technique": "MTT", "time": "48 h", "IC50": "133 ± 13.7 µM"}
{"SMILES": "CC1=NN(CNc2ccc(C(=O)O)c(O)c2)C(=O)/C1=N/Nn1c(-c2ccccc2)nc2ccccc2c1=O", "cell line": "NIH 3T3", "read-out": "cytotoxicity", "technique": "MTT", "IC50": "48.2 µM"}
{"SMILES": "Clc1ccc2ccc3[n+](c2c1)[Ir-3]12([c]4ccccc4-3)([c]3ccccc3-c3ccc4ccc(Cl)cc4[n+]31)[n+]1ccccc1-c1cccc[n+]12.F[P-](F)(F)(F)(F)F", "cell line": "MDA-MB-231 control", "read-out": "cytotoxicity", "technique": "MTT", "IC50": "0.3 µM"}
{"SMILES": "CCCCn1cc(C(=O)O)c(=O)c2cc(F)c(N)c([N+](=O)[O-])c21", "cell line": "T47D", "read-out": "cell growth or viability", "technique": "SRB", "IC50": "0.6 µM and 0.59 µM"}
{"SMILES": "CCCCn1cc(C(=O)O)c(=O)c2cc(F)c3c(nnn3-c3cccc(OC)c3)c21", "cell line": "T47D", "read-out": "cell growth or viability", "technique": "SRB", "IC50": "143 µM"}
{"SMILES": "CCCCn1cc(C(=O)O)c(=O)c2cc(F)c3[nH]nnc3c21", "cell line": "PANC-1", "read-out": "cell growth", "technique": "SRB", "time": "72 h", "IC50": "60.6 ± 7.45 µg/mL"}
{"SMILES": "CCCCn1cc(C(=O)O)c(=O)c2cc(F)c(Nc3cc(OC)c(OC)c(OC)c3)c([N+](=O)[O-])c21", "cell line": "PANC-1", "read-out": "cell growth or viability", "technique": "SRB", "IC50": "99.3 µM"}
{"note": "A few entries again:"}
{"SMILES": "Clc1ccc2ccc3[n+](c2c1)[Ir-3]12([c]4ccccc4-3)([c]3ccccc3-c3ccc4ccc(Cl)cc4[n+]31)[n+]1ccccc1-c1cccc[n+]12.F[P-](F)(F)(F)(F)F", "cell line": "MDA-MB-231 control", "read-out": "cytotoxicity", "technique": "MTT", "IC50": "0.3 µM"}
